Published values of several laboratories.
Numbered parts are unrelated; each lists some results of a single study.

Set 1 — method: protein binding microarray; form: double-stranded DNA, one strand shown; sample: in vitro; concentration: not given; reference: not given; reading: higher = stronger binding
Target: Histone acetyltransferase KAT6A, both winged helices, GST fusion (KAT6A, Homo sapiens, UniProt Q92794, residues 1-181)
Notes: 8-mer, flanks averaged, mean of 2 arrays, mostly near background
Residues (chain): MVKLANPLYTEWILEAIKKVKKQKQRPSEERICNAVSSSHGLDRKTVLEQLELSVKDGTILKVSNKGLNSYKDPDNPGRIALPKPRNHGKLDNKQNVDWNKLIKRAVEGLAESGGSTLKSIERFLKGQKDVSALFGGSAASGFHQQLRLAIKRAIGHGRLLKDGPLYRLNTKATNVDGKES
The E-score of `AGCCTCTC` is reported as -0.261.
For `CGGCTCAG`, the E-score was 0.193.
With `ACCGGCAC` the E-score was 0.23.
The E-score of `AGGAAGCC` is reported as -0.0834.
For `AGAGGGCT`, the E-score was -0.175.
`ACGGATCT` has an E-score of 0.0732.
With `AGCTATCA` the E-score was 0.0764.

Set 2 — method: RNA Bind-n-Seq; form: RNA; sample: in vitro; concentration: 365 nM; reference: no-protein control; reading: higher = stronger binding
Target: RNA binding protein fox-1 homolog 2, RRM domain, GST-SBP tag (RBFOX2, Homo sapiens, UniProt O43251-10, residues 100-194)
Notes: natural RNA segment, single round, ends assumed
Target sequence (chain): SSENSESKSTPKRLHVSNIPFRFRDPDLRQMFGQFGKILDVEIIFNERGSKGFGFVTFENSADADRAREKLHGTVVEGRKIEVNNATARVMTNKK
`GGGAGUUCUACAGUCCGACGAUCCCUUUCAGGACAUCUGGGUCUAAUACAGAAGAAUUAAUAAACUGGAUGAUUACUACAGCAAAAGCAGCUAACGUUUUACUUUGUAUCUUGUGUCCUCAGAAUUAAGAACUUGGAAUUCUCGGGUGCCAA` — result for “RBNS enrichment (R)”: 0.395.
Under “RBNS enrichment (R)”, `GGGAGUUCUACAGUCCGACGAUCCUUUCAAAUAAAACACCAGUCAGGUACCUUUAUCCCAGUCUUAACUGUCCCAAAUCUGGAAGGUCCAGAGUAAGCAGGAUUCAGGGAGAGGGAGUGGAUAGCAAGUAUCCUGGAAUUCUCGGGUGCCAA` is recorded as 0.557.
For `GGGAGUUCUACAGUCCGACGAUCCAUCCCCACUGCUAACUUGGGGCUGGGGCCUCCCUUUCACAGAUACCUUGGGUUUGUGCAUGUUUUCUGCUGGGUGGGAUCUGAGGGUGAUUUCUCUUUUACCUGUACAUUGGAAUUCUCGGGUGCCAA`, “RBNS enrichment (R)” read 5.62.
`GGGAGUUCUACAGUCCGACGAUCCCUCGCGCCUCAAAUCCCCCUACCCCGUGUGAACUCUAGGGCAUCGGACCUCAAGGGGUUAACUGGACAGACGGGGGGCGGGAGGGGAGAGCGCCCCCUCCCAUUGUAUAUGGAAUUCUCGGGUGCCAA` — result for “RBNS enrichment (R)”: 0.615.
For `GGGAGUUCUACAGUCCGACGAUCUGAAUUAGGAGCCGUUUUGGUAAUUAUUUCAUAUAUCGCCGUUUAUUGAGAAAAGGUUGUAGGAAGCCUCACAAGAGACUUUUGACAAUUCUGAGGAACCUUGUGCCCAGUGGAAUUCUCGGGUGCCAA`, “RBNS enrichment (R)” read 0.216.
Under “RBNS enrichment (R)”, `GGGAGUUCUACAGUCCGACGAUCAAUGAGAAUUUUAAGUAUUUGCAAUAAAUAUGUGUAUAUAGAUUGUAUGUAUUCAUAUAUUAUUUUUCAUUUUAUUAUUAAGUAAAAGAUAAUUAAAAGUGAAAUUAAAAUGGAAUUCUCGGGUGCCAA` is recorded as 1.41.
For `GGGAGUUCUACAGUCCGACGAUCACUUAAAAGAUUUCAAAAACGAUUUAGCCUUAUAAUGUAUUUAUUUAUUUAAUUCAUUAAUGAAAGAGAGUGCUCUCUUUAAUGCAGCUUUGGGUAGACAGUCUAAUUCAUGGAAUUCUCGGGUGCCAA`, “RBNS enrichment (R)” read 0.504.
`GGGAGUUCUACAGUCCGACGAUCCUGUCUCCUUGGGUGUCUGCUCUGCAUGGCACUGUAAAGCUUCGGUAUUUUGAGUGUUCUUCUUUCUUAGACCCACCCGCGGGAACCGUUCACAGGUACCCUCCCUCGGGUGGAAUUCUCGGGUGCCAA`: “RBNS enrichment (R)” 0.48.

Set 3 — method: RNAcompete; form: RNA; sample: in vitro; concentration: 20 nM; notes: 7-mer, probes averaged, single round; reference: mean of 7-mers; reading: higher = stronger binding
Target: PABPC1L2, full length, GST fusion (mouse, UniProt A0ABA7IW68)
Target sequence (chain): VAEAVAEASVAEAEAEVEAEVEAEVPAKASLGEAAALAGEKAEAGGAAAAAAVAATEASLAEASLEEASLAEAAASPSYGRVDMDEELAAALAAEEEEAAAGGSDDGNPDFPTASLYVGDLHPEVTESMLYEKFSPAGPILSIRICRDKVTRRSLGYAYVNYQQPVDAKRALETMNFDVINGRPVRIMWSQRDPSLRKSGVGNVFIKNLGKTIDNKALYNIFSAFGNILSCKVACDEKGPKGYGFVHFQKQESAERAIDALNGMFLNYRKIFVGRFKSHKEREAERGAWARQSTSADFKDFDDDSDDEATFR
`GGCCCUC` gave a 7-mer Z-score of -0.242.
For `AGAUAAU`, the 7-mer Z-score was -0.0373.
With `ACUUCAA` the 7-mer Z-score was -0.0609.
With `UUGGCGU` the 7-mer Z-score was -0.315.
For `AGCAGUG`, the 7-mer Z-score was 0.037.
`UUACCGG` has a 7-mer Z-score of -0.237.
With `GUUGAGC` the 7-mer Z-score was -0.255.
For `ACAAUCU`, the 7-mer Z-score was 0.0424.
The 7-mer Z-score of `CAUCUUG` is reported as -0.344.
The 7-mer Z-score of `ACCUCUA` is reported as -0.195.

Mixed results
`PhoQ, residues 284 288 289 292 302 303 SCEHLI` has a fold induction of 1.7 (PhoP, residues 12 14 15 18 19 LWHSL (Escherichia coli, UniProt P23836); Sort-seq, measured: YFP reporter; E. coli; PhoQ-PhoP variant library, with: 10 µM Mg2+; reference: high Mg2+ state, higher = stronger signaling).

Repeated from above (set 1):
The E-score of `AGGAAGCC` is reported as -0.0834.
`ACGGATCT` has an E-score of 0.0732.
With `ACCGGCAC` the E-score was 0.23.
